# Measured values of several laboratories.
# Every numbered part comes from another study and shows a few of its results, in no order.
# Sequence of UniProt P25098 (whole entry, looked up): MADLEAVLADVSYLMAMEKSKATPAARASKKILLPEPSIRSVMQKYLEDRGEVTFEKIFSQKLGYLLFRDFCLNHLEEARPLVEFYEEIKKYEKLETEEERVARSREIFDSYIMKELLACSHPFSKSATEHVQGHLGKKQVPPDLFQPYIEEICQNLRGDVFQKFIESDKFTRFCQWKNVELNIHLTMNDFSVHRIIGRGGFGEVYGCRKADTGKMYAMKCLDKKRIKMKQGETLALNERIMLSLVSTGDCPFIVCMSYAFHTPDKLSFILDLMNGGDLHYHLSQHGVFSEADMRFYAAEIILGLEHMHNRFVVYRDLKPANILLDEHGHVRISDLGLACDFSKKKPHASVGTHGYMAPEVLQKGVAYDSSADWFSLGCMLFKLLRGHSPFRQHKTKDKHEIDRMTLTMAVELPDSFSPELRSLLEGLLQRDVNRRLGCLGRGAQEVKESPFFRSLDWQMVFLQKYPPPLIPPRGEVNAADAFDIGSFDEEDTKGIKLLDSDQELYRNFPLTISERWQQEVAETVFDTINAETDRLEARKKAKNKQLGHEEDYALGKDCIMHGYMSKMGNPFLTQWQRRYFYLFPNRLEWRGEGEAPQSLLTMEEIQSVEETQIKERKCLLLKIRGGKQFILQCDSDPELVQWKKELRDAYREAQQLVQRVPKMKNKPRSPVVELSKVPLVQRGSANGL
# Sequence of UniProt P07333 (whole entry, looked up): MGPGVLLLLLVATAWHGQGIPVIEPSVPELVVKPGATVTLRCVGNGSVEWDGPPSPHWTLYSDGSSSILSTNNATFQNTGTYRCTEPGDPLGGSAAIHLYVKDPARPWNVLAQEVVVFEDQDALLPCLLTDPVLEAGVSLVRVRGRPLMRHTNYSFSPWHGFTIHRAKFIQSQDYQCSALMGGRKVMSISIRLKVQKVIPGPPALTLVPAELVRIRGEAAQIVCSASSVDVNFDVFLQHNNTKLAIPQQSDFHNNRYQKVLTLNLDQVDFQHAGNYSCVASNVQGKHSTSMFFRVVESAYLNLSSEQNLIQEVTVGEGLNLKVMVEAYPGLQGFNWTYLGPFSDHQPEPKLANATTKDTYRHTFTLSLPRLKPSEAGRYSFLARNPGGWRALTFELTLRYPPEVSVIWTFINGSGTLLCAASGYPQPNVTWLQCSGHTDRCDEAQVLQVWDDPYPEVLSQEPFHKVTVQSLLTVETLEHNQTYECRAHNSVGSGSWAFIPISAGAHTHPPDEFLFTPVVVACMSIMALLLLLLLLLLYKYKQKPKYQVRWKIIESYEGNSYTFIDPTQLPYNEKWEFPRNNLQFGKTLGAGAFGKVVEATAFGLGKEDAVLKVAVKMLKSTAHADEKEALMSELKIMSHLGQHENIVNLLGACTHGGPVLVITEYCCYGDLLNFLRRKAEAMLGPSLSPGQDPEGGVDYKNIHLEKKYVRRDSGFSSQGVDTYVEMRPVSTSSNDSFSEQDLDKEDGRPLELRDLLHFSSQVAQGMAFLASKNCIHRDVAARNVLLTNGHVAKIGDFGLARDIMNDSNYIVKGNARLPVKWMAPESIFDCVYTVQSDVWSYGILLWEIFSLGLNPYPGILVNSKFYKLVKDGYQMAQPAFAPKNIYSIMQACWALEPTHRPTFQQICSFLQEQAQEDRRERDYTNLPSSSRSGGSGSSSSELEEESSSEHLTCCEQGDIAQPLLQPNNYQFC
# Sequence of UniProt P43250 (whole entry, looked up): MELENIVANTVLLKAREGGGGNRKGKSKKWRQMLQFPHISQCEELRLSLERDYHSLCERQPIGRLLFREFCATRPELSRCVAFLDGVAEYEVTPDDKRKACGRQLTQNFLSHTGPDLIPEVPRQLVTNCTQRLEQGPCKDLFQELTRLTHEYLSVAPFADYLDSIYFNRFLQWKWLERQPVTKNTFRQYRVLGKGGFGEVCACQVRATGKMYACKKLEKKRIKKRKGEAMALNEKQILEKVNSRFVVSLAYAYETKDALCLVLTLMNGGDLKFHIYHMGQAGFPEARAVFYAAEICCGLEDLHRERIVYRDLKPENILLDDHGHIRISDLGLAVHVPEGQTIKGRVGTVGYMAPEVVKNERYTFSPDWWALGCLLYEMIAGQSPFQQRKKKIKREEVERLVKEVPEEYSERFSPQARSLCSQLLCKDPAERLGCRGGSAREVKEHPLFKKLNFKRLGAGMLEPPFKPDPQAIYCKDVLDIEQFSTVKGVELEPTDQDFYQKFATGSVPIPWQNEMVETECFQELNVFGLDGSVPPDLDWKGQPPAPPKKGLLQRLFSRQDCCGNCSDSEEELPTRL
# Sequence of UniProt Q16566 (whole entry, looked up): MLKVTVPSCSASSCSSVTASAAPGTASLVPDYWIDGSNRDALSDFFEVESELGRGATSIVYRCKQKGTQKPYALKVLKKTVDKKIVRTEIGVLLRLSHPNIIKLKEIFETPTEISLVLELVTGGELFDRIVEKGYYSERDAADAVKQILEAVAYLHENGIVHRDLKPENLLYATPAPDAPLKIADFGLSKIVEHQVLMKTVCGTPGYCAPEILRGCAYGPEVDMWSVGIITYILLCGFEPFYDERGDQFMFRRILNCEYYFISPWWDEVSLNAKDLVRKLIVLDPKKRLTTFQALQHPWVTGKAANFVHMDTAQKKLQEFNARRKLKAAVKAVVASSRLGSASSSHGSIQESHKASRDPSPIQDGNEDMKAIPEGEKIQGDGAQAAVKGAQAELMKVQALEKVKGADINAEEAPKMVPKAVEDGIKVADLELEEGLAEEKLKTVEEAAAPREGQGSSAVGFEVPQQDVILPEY

# Sample 1
# Structure (SMILES): O=C(Nc1cccnn1)N1CCC(=Cc2cccc(Oc3ccc(C(F)(F)F)cn3)c2)CC1
# Concentration: 1 µM
target,read-out,method,remaining binding [%]
"ROCK2 (Homo sapiens, UniProt O75116)",cell-free assay,competition with immobilised ligand,100
"STK38L (Homo sapiens, UniProt Q9Y2H1)",cell-free assay,competition with immobilised ligand,84
"RIOK3 (Homo sapiens, UniProt O14730)",cell-free assay,competition with immobilised ligand,100
"TAOK3 (Homo sapiens, UniProt Q9H2K8)",binding,competition with immobilised ligand,42
"CAMK4 (Homo sapiens, UniProt Q16566)",cell-free assay,competition with immobilised ligand,63
"MAPKAPK2 (Homo sapiens, UniProt P49137)",cell-free assay,competition with immobilised ligand,87
"HIPK3 (Homo sapiens, UniProt Q9H422)",cell-free assay,competition with immobilised ligand,100
"LYN (Homo sapiens, UniProt P07948)",cell-free assay,competition with immobilised ligand,100
"LTK (Homo sapiens, UniProt P29376)",cell-free assay,competition with immobilised ligand,74
"Macrophage colony-stimulating factor 1 receptor, autoinhibited (CSF1R, Homo sapiens, UniProt P07333)",cell-free assay,competition with immobilised ligand,100
"Aurora kinase B (AURKB, Homo sapiens, UniProt Q96GD4)",cell-free assay,competition with immobilised ligand,100
"SIK1 (Homo sapiens, UniProt P57059)",,competition binding,100
"FLT3 (Homo sapiens, UniProt P36888)",cell-free assay,competition with immobilised ligand,100
"Cyclin-dependent kinase 4, with cyclin D3 (CDK4, Homo sapiens, UniProt P11802)",cell-free assay,competition with immobilised ligand,96
"EIF2AK2 (Homo sapiens, UniProt P19525)",cell-free assay,competition with immobilised ligand,100
"STK32A (Homo sapiens, UniProt Q8WU08)",cell-free assay,competition with immobilised ligand,100
"CSNK1E (Homo sapiens, UniProt P49674)",cell-free assay,competition with immobilised ligand,100
"CDK15 (Homo sapiens, UniProt Q96Q40)",cell-free assay,competition with immobilised ligand,100
"MKNK1 (Homo sapiens, UniProt Q9BUB5)",cell-free assay,competition with immobilised ligand,100
"PIP4K2B (Homo sapiens, UniProt P78356)",cell-free assay,competition with immobilised ligand,83
"PIK3C3 (Homo sapiens, UniProt Q8NEB9)",cell-free assay,competition with immobilised ligand,100
"Ribosomal protein S6 kinase alpha-3, C-terminal kinase domain (RPS6KA3, Homo sapiens, UniProt P51812)",cell-free assay,competition with immobilised ligand,100
"GAK (Homo sapiens, UniProt O14976)",cell-free assay,competition with immobilised ligand,100
"ABL2 (Homo sapiens, UniProt P42684)",cell-free assay,competition with immobilised ligand,99
"Tyrosine-protein kinase ABL1, phosphorylated (ABL1, Homo sapiens, UniProt P00519, Y253F)",cell-free assay,competition with immobilised ligand,100

# Sample 2
# Target: Calcium/calmodulin-dependent protein kinase type II subunit alpha (CAMK2A, Homo sapiens, UniProt Q9UQM7)
# Sequence of UniProt Q9UQM7 (whole entry, looked up): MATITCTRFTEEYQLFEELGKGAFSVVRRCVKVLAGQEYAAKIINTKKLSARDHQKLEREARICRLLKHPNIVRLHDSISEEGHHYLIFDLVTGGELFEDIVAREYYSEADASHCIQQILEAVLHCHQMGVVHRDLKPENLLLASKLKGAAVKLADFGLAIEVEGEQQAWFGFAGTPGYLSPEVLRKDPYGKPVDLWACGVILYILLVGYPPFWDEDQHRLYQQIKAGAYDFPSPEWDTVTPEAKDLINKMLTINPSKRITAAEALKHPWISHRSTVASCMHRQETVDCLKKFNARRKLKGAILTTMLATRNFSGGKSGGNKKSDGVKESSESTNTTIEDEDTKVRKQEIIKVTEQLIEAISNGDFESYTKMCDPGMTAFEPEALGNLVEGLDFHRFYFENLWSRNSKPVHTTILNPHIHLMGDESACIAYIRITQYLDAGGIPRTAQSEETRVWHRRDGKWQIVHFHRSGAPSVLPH
# Read-out: enzyme activity
# Mode: inhibitor
# Concentration: 10 µM
SMILES,inhibition
COc1cc(O)c2c(=O)c(OC)c(-c3ccc(OC)c(OC)c3)oc2c1,24%
NCc1ccccc1CC(=O)N[C@@H]1C(=O)N2C(C(=O)O)=C(CSc3nnnn3CC(=O)O)CS[C@H]12,0%
CCC/C=C1/OC(=O)c2ccccc21,-13%
O=C(CCCCCCCCc1ccc(O)c(O)c1)c1c(O)cccc1O,-42%
C[C@H]1[C@H]2[C@H](O[C@@H]3O[C@H](CO)[C@@H](O)[C@H](O)[C@H]3O)OC=C(C(=O)O)[C@H]2C[C@@H]1O,27%
CC(=O)OC/C1=C/C[C@H]2[C@@H](/C=C(\C)C(=O)[C@@]3(OC(C)=O)C[C@H](C)[C@H](OC(=O)c4ccccc4)[C@@H]3[C@H]1OC(C)=O)C2(C)C,-119%
C[C@@]12C[C@@]3(O)O[C@@H](O1)[C@]1(COC(=O)c4ccccc4)[C@H]3C[C@@]12O[C@@H]1O[C@H](COC(=O)c2ccccc2)[C@@H](O)[C@H](O)[C@H]1O,11%
Nc1nc(=O)c2[nH]c(=O)cnc2[nH]1,19%
O=C(O)[C@@H]1CCCN1,2%
C=C(C)C(=O)Cc1c(OC)ccc2ccc(=O)oc12,23%
CC(C)C[C@H](NC(=O)CNC(=O)c1cc(Cl)ccc1Cl)B1OC(=O)C(CC(=O)O)(CC(=O)O)O1,-6%
COc1cc2c(=O)c(-c3ccc(O)cc3)coc2cc1O[C@@H]1O[C@H](COC(C)=O)[C@@H](O)[C@H](O)[C@H]1O,9%
CCCN1C[C@H](NS(=O)(=O)N(CC)CC)C[C@H]2Cc3c(O)cccc3C[C@@H]21,-8%
CC(C)=CCC[C@](C)(O)[C@H]1CC[C@]2(C)[C@@H]1[C@H](O)C[C@@H]1[C@@]3(C)CC[C@H](O)C(C)(C)[C@@H]3[C@@H](O)C[C@]12C,-50%
O=c1cc(-c2ccc(O)cc2)oc2c([C@@H]3O[C@H](CO)[C@@H](O)[C@H](O)[C@H]3O)c(O)c([C@@H]3O[C@H](CO)[C@@H](O)[C@H](O)[C@H]3O)c(O)c12,-19%
CC(=O)NCC(=O)O,8%
O=C(O)c1ccccc1C(=O)O,-1%
O=C(O)[C@@H]1C[C@H](O)CN1,-13%
CCOC(=O)c1cc(O)c(O)c(O)c1,-10%

# Sample 3
# SMILES: O=Nc1c(-c2c(O)[nH]c3cc(Br)ccc23)[nH]c2ccccc12
# Read-out: enzyme activity
# Mode: inhibitor
# Concentration: 0.5 µM
# Reference: control
target,remaining activity [%]
"GRK6 (Homo sapiens, UniProt P43250)",79.9
"PAK2 (Homo sapiens, UniProt Q13177)",90.9
"PRKCG (Homo sapiens, UniProt P05129)",90.9
"PIM2 (Homo sapiens, UniProt Q9P1W9)",95.5
"SGK1 (Homo sapiens, UniProt O00141)",60.9
"MYLK (Homo sapiens, UniProt Q15746)",45
"Aurora kinase C (AURKC, Homo sapiens, UniProt Q9UQB9)",51.8
"FGFR4 (Homo sapiens, UniProt P22455)",79.6
"NUAK1 (Homo sapiens, UniProt O60285)",15.7
"RPS6KB1 (Homo sapiens, UniProt P23443)",79.6
"RPS6KA1 (Homo sapiens, UniProt Q15418)",47.2
"CSF1R (Homo sapiens, UniProt P07333)",74.4
"CSK (Homo sapiens, UniProt P41240)",65.8
"EPHB2 (Homo sapiens, UniProt P29323)",74.7
"PRKCE (Homo sapiens, UniProt Q02156)",92.4
"GSK3A (Homo sapiens, UniProt P49840)",3.6
"BMX (Homo sapiens, UniProt P51813)",29.2
"SRPK3 (Homo sapiens, UniProt Q9UPE1)",96.4
"GRK2 (Homo sapiens, UniProt P25098)",97.3
"FLT3 (Homo sapiens, UniProt P36888)",4.02
"EPHA7 (Homo sapiens, UniProt Q15375)",81.4

# Sample 4
# SMILES: O=C(Nc1cnn(-c2csc(C(=O)NC3COC3)c2)c1)Nc1c(F)cccc1Cl
# Concentration: 5 µM
target,read-out,mode,method,reference,remaining activity [%]
"MAP3K1 (Homo sapiens, UniProt Q13233)",enzyme activity,,,untreated control,98.5
"IGF1R (Homo sapiens, UniProt P08069)",enzyme activity,,,untreated control,94.4
"STK38 (Homo sapiens, UniProt Q15208)",enzyme activity,,,untreated control,95.3
"MYLK2 (Homo sapiens, UniProt Q9H1R3)",enzyme activity,,,untreated control,79.4
"STK16 (Homo sapiens, UniProt O75716)",enzyme activity,,,untreated control,100
"DAPK2 (Homo sapiens, UniProt Q9UIK4)",enzyme activity,,,untreated control,97.7
"Myosin-IIIa (MYO3A, Homo sapiens, UniProt Q8NEV4)",enzyme activity,inhibitor,,,82.8
"BTK (Homo sapiens, UniProt Q06187)",enzyme activity,,,untreated control,89
"SNRK (Homo sapiens, UniProt Q9NRH2)",enzyme activity,,,untreated control,94.5
"PRKD1 (Homo sapiens, UniProt Q15139)",enzyme activity,,,untreated control,88.7
"TESK2 (Homo sapiens, UniProt Q96S53)",enzyme activity,inhibitor,,,80.1
"GRK2 (Homo sapiens, UniProt P25098)",enzyme activity,,,untreated control,104
"ERN2 (Homo sapiens, UniProt Q76MJ5)",enzyme activity,inhibitor,,,100
"ULK1 (Homo sapiens, UniProt O75385)",enzyme activity,,,untreated control,91.1
"ZAP70 (Homo sapiens, UniProt P43403)",enzyme activity,,,untreated control,104
"TAOK2 (Homo sapiens, UniProt Q9UL54)",kinase activity,,kinase panel profiling,,88.2
"Cyclin-dependent kinase 5, with p25 (CDK5, Homo sapiens, UniProt Q00535)",enzyme activity,,,untreated control,87.8
"STK10 (Homo sapiens, UniProt O94804)",enzyme activity,,,untreated control,87.5

# Excerpt of the above (sample 3):
target,remaining activity [%]
"PAK2 (Homo sapiens, UniProt Q13177)",90.9
"PRKCG (Homo sapiens, UniProt P05129)",90.9
"PIM2 (Homo sapiens, UniProt Q9P1W9)",95.5
"SGK1 (Homo sapiens, UniProt O00141)",60.9
"MYLK (Homo sapiens, UniProt Q15746)",45
"Aurora kinase C (AURKC, Homo sapiens, UniProt Q9UQB9)",51.8
"FGFR4 (Homo sapiens, UniProt P22455)",79.6
"NUAK1 (Homo sapiens, UniProt O60285)",15.7
"RPS6KB1 (Homo sapiens, UniProt P23443)",79.6
"RPS6KA1 (Homo sapiens, UniProt Q15418)",47.2
"CSF1R (Homo sapiens, UniProt P07333)",74.4
"CSK (Homo sapiens, UniProt P41240)",65.8
